Results pooled from the literature.
Each numbered part is a random draw from the data of one study; scales do not carry over between parts. Positions count from the first letter of the parent shown.
Sequence of UniProt P37023 (whole entry, looked up): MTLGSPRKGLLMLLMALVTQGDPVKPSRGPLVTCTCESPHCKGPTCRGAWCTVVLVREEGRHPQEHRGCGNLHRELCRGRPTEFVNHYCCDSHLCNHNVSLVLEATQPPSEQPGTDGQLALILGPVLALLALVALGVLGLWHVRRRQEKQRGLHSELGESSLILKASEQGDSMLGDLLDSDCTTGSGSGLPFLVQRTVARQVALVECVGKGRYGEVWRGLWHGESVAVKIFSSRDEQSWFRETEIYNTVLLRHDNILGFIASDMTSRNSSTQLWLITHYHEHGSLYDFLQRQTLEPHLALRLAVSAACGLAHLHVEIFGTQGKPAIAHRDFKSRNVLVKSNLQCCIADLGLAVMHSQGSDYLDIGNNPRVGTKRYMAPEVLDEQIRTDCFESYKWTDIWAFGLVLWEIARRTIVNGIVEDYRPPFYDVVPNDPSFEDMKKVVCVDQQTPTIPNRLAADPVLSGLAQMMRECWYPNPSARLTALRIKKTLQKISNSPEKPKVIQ
Sequence of UniProt Q13546 (whole entry, looked up): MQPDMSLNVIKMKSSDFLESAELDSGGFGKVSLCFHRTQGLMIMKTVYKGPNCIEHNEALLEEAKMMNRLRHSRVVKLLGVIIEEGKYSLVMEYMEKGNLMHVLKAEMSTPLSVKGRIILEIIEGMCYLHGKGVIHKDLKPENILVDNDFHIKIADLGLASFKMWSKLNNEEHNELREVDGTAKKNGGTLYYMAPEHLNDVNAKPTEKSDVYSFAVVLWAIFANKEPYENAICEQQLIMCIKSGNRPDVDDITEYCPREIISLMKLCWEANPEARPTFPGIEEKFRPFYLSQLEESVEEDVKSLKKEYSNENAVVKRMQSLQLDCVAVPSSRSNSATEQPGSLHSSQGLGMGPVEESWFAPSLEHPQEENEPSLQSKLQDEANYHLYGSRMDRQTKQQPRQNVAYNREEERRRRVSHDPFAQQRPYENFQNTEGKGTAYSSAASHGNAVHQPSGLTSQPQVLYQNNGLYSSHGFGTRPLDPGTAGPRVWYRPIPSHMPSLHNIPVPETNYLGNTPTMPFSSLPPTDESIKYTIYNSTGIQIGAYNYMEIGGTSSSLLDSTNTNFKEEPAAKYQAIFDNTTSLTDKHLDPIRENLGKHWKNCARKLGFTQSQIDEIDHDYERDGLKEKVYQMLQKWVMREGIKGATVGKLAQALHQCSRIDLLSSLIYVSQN
Sequence of UniProt Q9H1R3 (whole entry, looked up): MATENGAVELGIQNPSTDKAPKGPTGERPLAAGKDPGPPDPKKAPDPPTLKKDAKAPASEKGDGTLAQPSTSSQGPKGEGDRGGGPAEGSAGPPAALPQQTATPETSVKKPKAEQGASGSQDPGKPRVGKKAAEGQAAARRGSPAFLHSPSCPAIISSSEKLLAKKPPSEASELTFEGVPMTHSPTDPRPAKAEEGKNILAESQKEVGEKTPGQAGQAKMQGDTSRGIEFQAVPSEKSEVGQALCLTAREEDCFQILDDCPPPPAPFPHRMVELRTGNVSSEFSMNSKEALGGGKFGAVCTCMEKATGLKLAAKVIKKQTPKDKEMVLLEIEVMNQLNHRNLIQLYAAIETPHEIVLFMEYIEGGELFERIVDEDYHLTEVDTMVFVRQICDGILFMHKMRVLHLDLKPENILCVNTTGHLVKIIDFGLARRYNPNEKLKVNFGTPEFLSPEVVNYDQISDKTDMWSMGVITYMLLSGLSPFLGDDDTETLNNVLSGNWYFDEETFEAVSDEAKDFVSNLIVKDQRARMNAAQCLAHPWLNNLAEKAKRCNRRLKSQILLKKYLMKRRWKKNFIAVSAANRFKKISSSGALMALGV
Sequence of UniProt Q8TD19 (whole entry, looked up): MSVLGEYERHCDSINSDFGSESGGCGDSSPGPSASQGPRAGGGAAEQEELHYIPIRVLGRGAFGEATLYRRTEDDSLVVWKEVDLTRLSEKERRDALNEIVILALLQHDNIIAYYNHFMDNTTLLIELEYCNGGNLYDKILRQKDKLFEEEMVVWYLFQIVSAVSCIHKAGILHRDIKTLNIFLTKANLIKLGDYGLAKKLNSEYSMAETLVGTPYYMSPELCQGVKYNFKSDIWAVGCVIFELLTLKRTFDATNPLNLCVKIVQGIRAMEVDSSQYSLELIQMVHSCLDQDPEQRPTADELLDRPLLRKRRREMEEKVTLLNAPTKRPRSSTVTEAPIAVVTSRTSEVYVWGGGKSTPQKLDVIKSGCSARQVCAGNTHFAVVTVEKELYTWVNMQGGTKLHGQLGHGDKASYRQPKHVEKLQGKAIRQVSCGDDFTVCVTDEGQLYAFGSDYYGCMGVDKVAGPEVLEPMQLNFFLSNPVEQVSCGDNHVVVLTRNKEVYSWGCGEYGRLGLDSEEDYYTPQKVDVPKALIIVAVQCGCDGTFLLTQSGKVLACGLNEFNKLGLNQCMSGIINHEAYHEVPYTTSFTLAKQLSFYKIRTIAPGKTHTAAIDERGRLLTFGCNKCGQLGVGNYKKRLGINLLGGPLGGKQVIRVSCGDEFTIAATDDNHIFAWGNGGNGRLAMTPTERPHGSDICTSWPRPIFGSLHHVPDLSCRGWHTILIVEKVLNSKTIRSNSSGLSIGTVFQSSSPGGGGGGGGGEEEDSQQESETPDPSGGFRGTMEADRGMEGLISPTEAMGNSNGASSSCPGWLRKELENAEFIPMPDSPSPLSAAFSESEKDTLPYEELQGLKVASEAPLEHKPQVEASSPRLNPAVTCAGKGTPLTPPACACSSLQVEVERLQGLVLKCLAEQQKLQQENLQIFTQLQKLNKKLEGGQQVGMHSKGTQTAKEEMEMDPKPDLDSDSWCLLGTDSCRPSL

Series 1 — effect on: enzyme activity; mode: inhibitor; concentration: 0.5 µM; relative to: control
Target: Proto-oncogene tyrosine-protein kinase ROS (ROS1, Homo sapiens, UniProt P08922)
Sequence of UniProt P08922 (whole entry, looked up): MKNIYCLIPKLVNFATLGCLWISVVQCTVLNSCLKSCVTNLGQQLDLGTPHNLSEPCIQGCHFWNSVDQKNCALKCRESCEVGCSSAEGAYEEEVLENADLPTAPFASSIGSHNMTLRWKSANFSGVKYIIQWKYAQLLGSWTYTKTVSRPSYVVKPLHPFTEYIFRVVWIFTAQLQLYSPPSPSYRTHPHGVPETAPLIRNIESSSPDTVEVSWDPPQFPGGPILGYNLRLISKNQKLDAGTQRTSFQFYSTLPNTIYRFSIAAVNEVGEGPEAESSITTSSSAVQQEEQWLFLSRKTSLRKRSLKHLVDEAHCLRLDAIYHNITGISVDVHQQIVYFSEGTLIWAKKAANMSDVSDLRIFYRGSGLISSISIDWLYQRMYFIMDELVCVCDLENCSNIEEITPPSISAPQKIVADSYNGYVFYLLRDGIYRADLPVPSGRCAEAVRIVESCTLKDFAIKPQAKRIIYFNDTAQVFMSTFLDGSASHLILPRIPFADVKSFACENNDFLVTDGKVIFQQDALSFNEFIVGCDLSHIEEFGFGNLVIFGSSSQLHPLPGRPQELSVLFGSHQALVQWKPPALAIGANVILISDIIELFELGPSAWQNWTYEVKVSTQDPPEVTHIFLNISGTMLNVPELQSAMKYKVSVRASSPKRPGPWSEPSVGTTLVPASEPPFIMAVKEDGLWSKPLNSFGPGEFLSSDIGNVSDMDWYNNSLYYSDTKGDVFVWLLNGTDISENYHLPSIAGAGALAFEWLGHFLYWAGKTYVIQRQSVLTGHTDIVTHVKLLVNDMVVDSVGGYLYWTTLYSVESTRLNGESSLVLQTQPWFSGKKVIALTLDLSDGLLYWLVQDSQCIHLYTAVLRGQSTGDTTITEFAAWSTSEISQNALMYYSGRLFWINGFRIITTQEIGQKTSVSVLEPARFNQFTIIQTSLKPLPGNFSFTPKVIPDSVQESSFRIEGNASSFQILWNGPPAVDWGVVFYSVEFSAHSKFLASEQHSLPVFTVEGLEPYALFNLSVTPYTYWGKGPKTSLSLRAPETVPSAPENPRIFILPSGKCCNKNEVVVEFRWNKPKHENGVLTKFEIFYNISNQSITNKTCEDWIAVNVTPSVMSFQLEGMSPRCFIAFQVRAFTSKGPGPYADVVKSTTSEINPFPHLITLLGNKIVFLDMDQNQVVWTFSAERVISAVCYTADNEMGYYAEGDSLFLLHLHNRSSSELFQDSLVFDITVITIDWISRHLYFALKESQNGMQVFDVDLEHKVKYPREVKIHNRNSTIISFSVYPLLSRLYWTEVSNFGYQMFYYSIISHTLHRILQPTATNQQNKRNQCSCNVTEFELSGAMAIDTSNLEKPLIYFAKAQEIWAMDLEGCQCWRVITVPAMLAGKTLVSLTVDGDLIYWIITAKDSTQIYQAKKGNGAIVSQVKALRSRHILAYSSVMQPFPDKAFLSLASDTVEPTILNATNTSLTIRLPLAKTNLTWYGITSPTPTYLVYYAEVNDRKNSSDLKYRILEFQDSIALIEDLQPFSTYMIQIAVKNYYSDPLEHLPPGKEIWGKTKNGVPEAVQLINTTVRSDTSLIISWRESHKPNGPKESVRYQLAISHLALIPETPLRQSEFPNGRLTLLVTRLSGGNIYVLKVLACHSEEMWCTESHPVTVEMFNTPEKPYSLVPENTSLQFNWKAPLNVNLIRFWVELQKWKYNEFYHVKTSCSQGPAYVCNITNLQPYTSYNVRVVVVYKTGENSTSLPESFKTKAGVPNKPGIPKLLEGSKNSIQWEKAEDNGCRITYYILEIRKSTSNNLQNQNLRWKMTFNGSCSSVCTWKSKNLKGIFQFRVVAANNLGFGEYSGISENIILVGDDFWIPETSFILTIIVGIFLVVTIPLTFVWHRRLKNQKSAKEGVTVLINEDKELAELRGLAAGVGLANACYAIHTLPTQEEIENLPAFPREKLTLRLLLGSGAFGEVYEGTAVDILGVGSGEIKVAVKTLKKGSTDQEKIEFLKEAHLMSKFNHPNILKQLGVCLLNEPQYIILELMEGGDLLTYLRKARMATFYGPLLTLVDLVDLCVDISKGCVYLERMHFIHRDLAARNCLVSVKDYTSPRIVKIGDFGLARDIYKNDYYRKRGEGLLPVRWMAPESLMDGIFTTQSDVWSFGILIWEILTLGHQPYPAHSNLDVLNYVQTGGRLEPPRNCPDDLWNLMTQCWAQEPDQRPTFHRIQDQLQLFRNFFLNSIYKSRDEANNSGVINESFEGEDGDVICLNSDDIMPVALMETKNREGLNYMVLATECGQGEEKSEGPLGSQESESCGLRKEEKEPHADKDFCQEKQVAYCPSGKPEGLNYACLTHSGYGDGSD
With N#Cc1cnc2cnc(NCc3cccnc3)cc2c1Nc1ccc(F)c(Cl)c1 the remaining activity was 98.3%.
With O=Nc1c(-c2c(O)[nH]c3ccccc23)[nH]c2ccccc12 the remaining activity was 65.6%.
CN(C)S(=O)(=O)c1ccc2c(c1)/C(=C/c1cc3c([nH]1)CCCC3)C(=O)N2 has a remaining activity of 83.3%.
The remaining activity of c1ccc(-c2n[nH]c3c2oc2ccccc23)cc1 is reported as 106%.
The remaining activity of CNc1cc2c(Nc3cccc(Br)c3)ncnc2cn1 is reported as 89.1%.
O=c1c(-c2ccc(F)cc2)c(-c2ccncc2)[nH]n1-c1ccc(Cl)cc1 gave a remaining activity of 97.6%.
O=C1NC(=O)c2c1c1c3ccccc3[nH]c1c1[nH]c3cc(Br)ccc3c21 has a remaining activity of 74.4%.
The remaining activity of O=c1cc(N2CCOCC2)oc2c(-c3ccccc3)cccc12 is reported as 98.4%.
For Oc1cccc(-c2nc(N3CCOCC3)c3oc4ncccc4c3n2)c1, the remaining activity was 93.1%.
With CCN(CC)CCCCN1c2ccccc2Oc2ccc(Cl)cc21 the remaining activity was 95.3%.
C[C@@H](N)[C@H]1CC[C@H](C(=O)Nc2ccncc2)CC1 gave a remaining activity of 97.4%.
CN1CCN(c2ccc3nc(-c4c(N)c5c(F)cccc5[nH]c4=O)[nH]c3c2)CC1 gave a remaining activity of 95.5%.
O=C(O)/C=C/c1cc(Br)c(Br)c(Br)c1Br gave a remaining activity of 94%.
For O=C1Nc2ccccc2/C1=C\c1c(Cl)[nH]c2ccccc12, the remaining activity was 109%.

Series 2 — technique: competition with immobilised ligand; concentration: 0.1 µM
Compound: CS(=O)(=O)N1CCCC(NC(=O)[C@H](CCC2CCCCC2)NC(=O)c2ccc(CNc3ncnc4c3nnn4-c3ccccc3)cc2)C1 (some centres unmarked)
It gave 82% for remaining binding (Serine/threonine-protein kinase tousled-like 2 (TLK2, Homo sapiens, UniProt Q86UE8); cell-free assay).
For Ribosomal protein S6 kinase alpha-1, C-terminal kinase domain (RPS6KA1, Homo sapiens, UniProt Q15418); cell-free assay: remaining binding read 100%.
For Tyrosine-protein kinase CSK (CSK, Homo sapiens, UniProt P41240); cell-free assay: remaining binding read 91%.
It gave 73% for remaining binding (Inhibitor of nuclear factor kappa-B kinase subunit epsilon (IKBKE, Homo sapiens, UniProt Q14164); cell-free assay).
For Receptor-interacting serine/threonine-protein kinase 1 (RIPK1, Homo sapiens, UniProt Q13546); cell-free assay: remaining binding read 94%.
It gave 91% for remaining binding (Bone morphogenetic protein receptor type-1B (BMPR1B, Homo sapiens, UniProt O00238); cell-free assay).
The remaining binding was 90% (Myosin light chain kinase 2, skeletal/cardiac muscle (MYLK2, Homo sapiens, UniProt Q9H1R3); cell-free assay).
The remaining binding was 83% (Mitogen-activated protein kinase 9 (MAPK9, Homo sapiens, UniProt P45984); cell-free assay).
The remaining binding was 100% (Receptor-type tyrosine-protein kinase FLT3 (FLT3, Homo sapiens, UniProt P36888, D835V/ITD); cell-free assay).
It gave 100% for remaining binding (Epidermal growth factor receptor (EGFR, Homo sapiens, UniProt P00533, T790M); cell-free assay).
It gave 94% for remaining binding (Calcium/calmodulin-dependent protein kinase type II subunit gamma (CAMK2G, Homo sapiens, UniProt Q13555); cell-free assay).
The remaining binding was 100% (Serine/threonine-protein kinase MARK2 (MARK2, Homo sapiens, UniProt Q7KZI7); cell-free assay).
Serine/threonine-protein kinase Nek9 (NEK9, Homo sapiens, UniProt Q8TD19); cell-free assay — remaining binding: 100%.
Epidermal growth factor receptor (EGFR, Homo sapiens, UniProt P00533, G719C); cell-free assay — remaining binding: 86%.
The remaining binding was 97% (Activin receptor type-1-like (ACVRL1, Homo sapiens, UniProt P37023); binding).
It gave 100% for remaining binding (LIM domain kinase 1 (LIMK1, Homo sapiens, UniProt P53667); cell-free assay).
Fibroblast growth factor receptor 1 (FGFR1, Homo sapiens, UniProt P11362); cell-free assay — remaining binding: 91%.
It gave 81% for remaining binding (Phosphatidylinositol 4,5-bisphosphate 3-kinase catalytic subunit beta isoform (PIK3CB, Homo sapiens, UniProt P42338); cell-free assay).

Series 3 — target: CCNB1, cyclin fold, Cln2 fusion (human); technique: yeast growth competition, sequencing; sample: yeast; setting: weak parent motif; relative to: not given; direction: higher = stronger binding
Starting sequence: CDC25A docking peptide (human); PPHRRRLLFACSP
`PPHMRRLLFACSP [R4M]`: “normalised enrichment score” 0.0896.
`PPHRRRLCFACSP [L8C]` — result for “normalised enrichment score”: -0.0383.
`PPHRRRLLFFCSP [A10F]` — result for “normalised enrichment score”: 0.815.
`PPHRRRLLFAISP [C11I]`: “normalised enrichment score” 0.529.
Under “normalised enrichment score”, `PPHRRRTLFACSP [L7T]` is recorded as 0.949.
For `PPHRRELLFACSP [R6E]`, “normalised enrichment score” read 0.533.
Under “normalised enrichment score”, `PPHRRRDLFACSP [L7D]` is recorded as 0.225.
`PPHRRHLLFACSP [R6H]`: “normalised enrichment score” 0.193.

Further values, each from its own experiment — technique: cross-linking MS
`HNRNPL (Homo sapiens, UniProt P14866)`: interaction screen “cross-linked” (HNRNPA2B1 (Homo sapiens, UniProt P22626); hits only).
`RAD21 (Homo sapiens, UniProt O60216)`: interaction screen “cross-linked” (SMC3 (Homo sapiens, UniProt Q9UQE7); hits only).
For `SYF2 (Homo sapiens, UniProt O95926)`, interaction screen read “cross-linked” (CRNKL1 (Homo sapiens, UniProt Q9BZJ0); hits only).
For `ATP5F1D (Homo sapiens, UniProt P30049)`, cross-linked residues read “E147 to A2” (ATP5MK (Homo sapiens, UniProt Q96IX5); cell fractions; together with: DMTMM).

A few entries again (series 1):
The remaining activity of c1ccc(-c2n[nH]c3c2oc2ccccc23)cc1 is reported as 106%.
The remaining activity of CNc1cc2c(Nc3cccc(Br)c3)ncnc2cn1 is reported as 89.1%.
O=c1c(-c2ccc(F)cc2)c(-c2ccncc2)[nH]n1-c1ccc(Cl)cc1 gave a remaining activity of 97.6%.
O=C1NC(=O)c2c1c1c3ccccc3[nH]c1c1[nH]c3cc(Br)ccc3c21 has a remaining activity of 74.4%.
The remaining activity of O=c1cc(N2CCOCC2)oc2c(-c3ccccc3)cccc12 is reported as 98.4%.
For Oc1cccc(-c2nc(N3CCOCC3)c3oc4ncccc4c3n2)c1, the remaining activity was 93.1%.
With CCN(CC)CCCCN1c2ccccc2Oc2ccc(Cl)cc21 the remaining activity was 95.3%.
